Experimental data gathered from unrelated publications.
Several values in a cell are separate wells, animals, samples, runs or records. ± gives the spread as reported.

The relative abundance of `COc1ccccc1-c1n[nH]c2nc(NC3CCN(C(=O)Cc4ccc(F)cc4F)CC3)ncc12` is reported as 1 (bead binding, competition bead pull-down, refers to: LINJ.20.0110; Leishmania donovani axenic amastigote extract; 10 µM; baseline: vehicle).
`NNC(=O)c1ccccc1` has a normalised absorbance of 0.701 (hydrazine ligation kinetics, absorbance; concentration not given, 30 s, together with: 2-formylphenylboronic acid).
Under “ABTS radical scavenging”, `CC(C)C[C@H](NC(=O)[C@@H](N)CCCNC(=N)N)C(=O)N[C@@H](CCCNC(=N)N)C(=O)N[C@@H](Cc1c[nH]c2ccccc12)C(=O)N1CCC[C@H]1C(=O)N[C@@H](CCCNC(=N)N)C(=O)N1CCC[C@H]1C(=O)N[C@@H](CCCNC(=N)N)C(=O)N[C@@H](Cc1c[nH]c2ccccc12)C(=O)N[C@@H](CCCNC(=N)N)C(=O)N[C@@H](CCCCN)C(=O)N1CCC[C@H]1C(=O)N1CCC[C@H]1C(=O)O` is recorded as 0.62 fraction (0-1) (absorbance at 734 nm; 1 mg/mL, 5 min, room temperature).
Under “splenic vWF+ megakaryocytes”, `O=C(O)c1ccc(-c2nc(-c3ccccc3Cl)c3sccn23)cc1` is recorded as 15 per high-power field and 19 per high-power field (mouse, spleen; dose not given).
With `CCN(Cc1ccccc1)C(=O)CCc1nc(CN2CCN(C(=O)Cc3ccc(OC)c(OC)c3)CC2)no1` the rheobase was 540 ± 137 pA (current clamp; DRG neurons, naive rat; 3 µM).
`COc1ccccc1-c1n[nH]c2nc(N[C@H]3CC[C@H](NS(=O)(=O)CC(C)C)CC3)ncc12` gave a relative abundance of 1.27 (bead binding, competition bead pull-down, refers to: LINJ.14.1540; Leishmania donovani extract; 10 µM; baseline: vehicle).
Under “mineral apposition rate”, `CCc1nnc(-c2c(OC)cc(-c3cnc4cc(-c5cnn(C)c5)ccn34)cc2OC)o1` is recorded as 0.658 ± 0.039 µm/day (histomorphometry; male C57BL/6J mouse, tibia; oral gavage, 10 mg/kg once daily, 3 wk).
For `C[C@H](NCc1ccc(-c2ccc(C(F)(F)F)cc2)cc1)C(N)=O`, the step-through latency was 60.6 ± 16.7 s (passive avoidance acquisition; APP/PS1 mice; oral, 10 mg/kg, 72 h, 3 days treatment).
`CC(C)C[C@@H]1NC(=O)[C@@H](Cc2c[nH]c3ccccc23)NC(=O)[C@H](CCCNC(=N)N)NC(=O)[C@@H](CCC(=O)O)NC(=O)[C@H](CCC(N)=O)NC(=O)[C@@H](CCC(=O)O)NC(=O)[C@H](CCCNC(=N)N)NC(=O)[C@@H](Cc2c[nH]c3ccccc23)NC1=O` has a cytokine level of 670 ± 160 pg/g tissue (Luminex, refers to: IL9; LDLr-/- mice, Western diet, liver; dose not given, 4 weeks).
For `CCCC[C@@H]1NC(=O)[C@H](Cc2ccc(O)cc2)NC(=O)[C@@H]2CCCN2C(=O)[C@H](CC(=O)O)NC(=O)[C@H](C)NC(=O)[C@H](Cc2ccccc2)NC(=O)[C@@H]2CSCCC(=O)N3CN(CN(C3)C(=O)CCSC[C@@H](C(=O)N[C@@H](C)C(N)=O)NC1=O)C(=O)CCSC[C@H](NC(C)=O)C(=O)N[C@@H](CC(C)(C)C)C(=O)N1CCC[C@H]1C(=O)N[C@@H](CCC(=O)O)C(=O)N[C@H](CCCCNC(=O)CCc1cn(CCOCCOCCOCCN(CCOCCOCCOCCC(=O)N[C@H]3CSCCC(=O)N4CN5CN(C4)C(=O)CCSC[C@H](NC(=O)[C@@H](CC(=O)O)NC(=O)[C@H](Cc4cccc6ccccc46)NC(=O)[C@@H]4CCCN4C3=O)C(=O)N[C@@H](CCSC)C(=O)N[C@@H](CCCCNC(=N)N)C(=O)N[C@@H](CC(=O)O)C(=O)N[C@@H](Cc3c[nH]c4ccccc34)C(=O)N[C@@H](CO)C(=O)N[C@@H]([C@@H](C)O)C(=O)N3CCC[C@H]3C(=O)N3C[C@H](O)C[C@H]3C(=O)N[C@@H](Cc3c[nH]c4ccccc34)C(=O)N[C@H](C(N)=O)CSCCC5=O)CCOCCOCCOCCn3cc(CCC(=O)NCCCC[C@H]4NC(=O)[C@H](CCC(=O)O)NC(=O)[C@@H]5CCCN5C(=O)[C@H](CC(C)(C)C)NC(=O)[C@@H](NC(C)=O)CSCCC(=O)N5CN6CN(C5)C(=O)CCSC[C@H](NC(=O)[C@H](Cc5ccc(O)cc5)NC(=O)[C@@H]5CCCN5C4=O)C(=O)N[C@@H](Cc4ccccc4)C(=O)N[C@@H](C)C(=O)N[C@@H](CC(=O)O)C(=O)N4CCC[C@H]4C(=O)N[C@@H](Cc4ccc(O)cc4)C(=O)N[C@@H](CCCC)C(=O)N[C@H](C(=O)N[C@@H](C)C(N)=O)CSCCC6=O)nn3)nn1)C(=O)N1CCC[C@H]1C(=O)N[C@@H](Cc1ccc(O)cc1)C(=O)N2`, the mRNA level was 2.54 (NanoString, refers to: Clec5a-mRNA; mouse bearing MC38-Nectin-4 tumour, circulating white blood cells; 5 mg/kg, 24 h after dosing, unit not given; baseline: vehicle).

Some of these lines once more:
`CC(C)C[C@@H]1NC(=O)[C@@H](Cc2c[nH]c3ccccc23)NC(=O)[C@H](CCCNC(=N)N)NC(=O)[C@@H](CCC(=O)O)NC(=O)[C@H](CCC(N)=O)NC(=O)[C@@H](CCC(=O)O)NC(=O)[C@H](CCCNC(=N)N)NC(=O)[C@@H](Cc2c[nH]c3ccccc23)NC1=O` has a cytokine level of 670 ± 160 pg/g tissue (Luminex, refers to: IL9; LDLr-/- mice, Western diet, liver; dose not given, 4 weeks).
